Measurements pooled from the literature.
Each numbered part is a random draw from the data of one study; scales do not carry over between parts. Positions count from the first letter of the parent shown.

Sample 1 — target: ATF7, bZIP domain (human); method: DHFR protein complementation; medium: yeast; relative to: wild-type JUN-FOS pair; direction: higher = stronger binding
Notes: single substitutions, most at no-binding floor
Parent: JUN, bZIP domain (human); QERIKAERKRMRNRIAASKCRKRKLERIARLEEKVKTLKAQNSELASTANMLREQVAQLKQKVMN; partner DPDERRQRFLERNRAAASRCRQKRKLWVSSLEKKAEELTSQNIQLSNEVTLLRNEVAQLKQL
Change | binding fitness
V56E | -1.45 natural log
V56T | -1.37 natural log
T48I | -1.02 natural log
S47N | -0.727 natural log
L38E | -1.59 natural log
R53G | -1.46 natural log
K36R | -0.771 natural log
R53D | -1.44 natural log
R30H | -0.735 natural log
A46R | -0.785 natural log
A40W | -1.23 natural log
M51F | -1.05 natural log
E44D | -1.05 natural log
E32L | -0.832 natural log
E44Y | -1.16 natural log
N42A | -1.35 natural log
T37A | -0.812 natural log
S47W | -0.989 natural log
A49H | -1.38 natural log
T37Y | -1.06 natural log
K36P | -1.46 natural log
I28A | -1.1 natural log
K39A | -1.02 natural log
R30G | -0.933 natural log
A49F | -1.45 natural log

Sample 2 — method: DHFR PCA, deep sequencing; medium: yeast; added: (+)-ABA 1.4 µM; relative to: wild-type fitted maximum; direction: higher = stronger binding
Target: ABI1, truncated, D143A, DHFR fusion (Arabidopsis thaliana)
Notes: methotrexate growth selection, single substitutions
Parent: PYL1, truncated, DHFR fusion (Arabidopsis thaliana); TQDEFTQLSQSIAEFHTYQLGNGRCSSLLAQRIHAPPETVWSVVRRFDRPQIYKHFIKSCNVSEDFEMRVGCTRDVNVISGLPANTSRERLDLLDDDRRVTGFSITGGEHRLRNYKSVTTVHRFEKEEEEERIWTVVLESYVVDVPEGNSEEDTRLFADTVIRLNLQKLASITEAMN; partner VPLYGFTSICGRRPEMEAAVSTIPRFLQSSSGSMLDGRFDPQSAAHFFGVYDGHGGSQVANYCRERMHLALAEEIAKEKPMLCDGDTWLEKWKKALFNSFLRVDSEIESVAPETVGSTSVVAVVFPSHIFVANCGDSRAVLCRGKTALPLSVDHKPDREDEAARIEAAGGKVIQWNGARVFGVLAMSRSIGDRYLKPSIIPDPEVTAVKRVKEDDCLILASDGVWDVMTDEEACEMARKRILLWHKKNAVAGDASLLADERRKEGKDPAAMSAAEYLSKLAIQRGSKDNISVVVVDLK
Change | relative binding score [%]
M176K | 41.7
V78Q | -9.83
Q31C | 0.976
F56K | -3.56
N177A | 64.9
K168H | 60.2
Q7L | 58.9
R111W | 1.19
G23D | 40.8
R32T | 65.9
R24Q | 77.7
T160L | 37.7
T106R | 7.93
P37G | -16.2
I162D | -0.418
L166M | 16.7
H55Y | 50.7
V121I | 32.5
R46W | 4.72

Sample 3 — method: universal PBM; form: double-stranded DNA, one strand shown; medium: in vitro; concentration: not given; direction: higher = stronger binding
Target: Sal-like protein 4, full length isoform B (SALL4, Homo sapiens, UniProt Q9UJQ4-2, residues 1-616)
Notes: 8-mer, flanks averaged, mean of replicates
Oligonucleotide | E-score
GGGTATGA | 0.0925
CCAGGCCC | -0.324
CAGATTAG | -0.0166
CACTCCCA | -0.0479
GATAAGAA | 0.212
ATTTGGGA | 0.0931
ACTACGCT | -0.00982
CTTGAACC | 0.107
GCCTTGCA | -0.0499
CAATCTCG | -0.00852
CCGTGCTA | -0.15
CGACAGTC | -0.265
CCTATAAA | 0.234
AAACAGGT | 0.0814
CAACGTAG | 0.0678
CCCTTTTC | 0.0265
GAGGTACA | 0.0261
ACATGGCC | -0.0706
AGACCATC | -0.0842

Sample 4 — method: RNA Bind-n-Seq; form: RNA; medium: in vitro; concentration: 200 nM; notes: whole 134-nt RNA, ends assumed; added: 150 mM LiCl; relative to: input library; direction: higher = stronger binding; library: 7-deaza-guanosine replaces G
Target: Fragile X messenger ribonucleoprotein 1, C-terminal low-complexity region (Fmr1, Mus musculus, UniProt P35922)
Oligonucleotide | log2 enrichment
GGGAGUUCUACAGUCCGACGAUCCCUGUGCUACACAUCGUAUGUACCGAAUCGGGGAAAAAGGGGAAAAAAAGGGGUUUGGGGAAAGUAUUAUGUUACGCCGUUCGGAUCUGCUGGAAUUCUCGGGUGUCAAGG | -0.787
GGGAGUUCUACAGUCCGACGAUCUCAAGUCCUGUGCUACACAUCGUAUGUACCGAAUCGGUUUUUUUGGAGGUUUGGAAAGUAUUAUGUUACGCCGUUCGGAUCUGCACUUCCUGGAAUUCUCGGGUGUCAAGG | -1.29
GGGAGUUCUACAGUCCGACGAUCUGGCCUGCACAUUCAGCUGCAUGAUGAAGUUCACUGUCAAGGACUGUGAUCCCACCACUGGGGAGACUGAUGACGAAGGCUAUGAGGAUGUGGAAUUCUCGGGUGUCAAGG | -2.84
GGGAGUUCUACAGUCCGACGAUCACCAUGCAGGUGGGCAUCUUUGGGAAGUGGGGCAAGGGGGGGAUAGGGAGGGUGGUAACACUUUGGGAACAGGUGGUCCCAGGUCGUUUCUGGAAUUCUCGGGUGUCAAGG | 0.956
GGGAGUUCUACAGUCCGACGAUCAAGUCCUGUGCUACACAUCGUAUGUACCGAAUCGGGGUGGGGAAAAAGGGGAGGGGAAAGUAUUAUGUUACGCCGUUCGGAUCUGCACUUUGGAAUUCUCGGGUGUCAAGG | 0.357
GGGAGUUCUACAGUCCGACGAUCGUCCUGUGCUACACAUCGUAUGUACCGAAUCGGGUUUUUUUGGGAAAAAGGGUUUGGGAAAGUAUUAUGUUACGCCGUUCGGAUCUGCACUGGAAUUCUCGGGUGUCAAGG | -3.07
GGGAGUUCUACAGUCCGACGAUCAAGUCCUGUGCUACACAUCGUAUGUACCGAAUCGGGAAAGGGAAAAAGGGUUUGGGAAAGUAUUAUGUUACGCCGUUCGGAUCUGCACUUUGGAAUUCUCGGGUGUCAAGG | -2.55
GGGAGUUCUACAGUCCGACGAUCUCCUGUGCUACACAUCGUAUGUACCGAAUCGGAAAAAAGGAAAAAAGGGAAAAAAGGGGAAAGUAUUAUGUUACGCCGUUCGGAUCUGCAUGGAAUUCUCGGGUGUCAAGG | -0.976
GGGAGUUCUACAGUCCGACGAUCAAGUCCUGUGCUACACAUCGUAUGUACCGAAUCGGGAGGGUUUUUGGGUUUUUGGGAAAGUAUUAUGUUACGCCGUUCGGAUCUGCACUUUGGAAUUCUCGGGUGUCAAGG | -1.5
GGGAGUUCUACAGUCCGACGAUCUGGCUUCGAAGUACAGUCUUUGCAGGAUGCAGGAAAUCAGCUUGGUAUGGAGGAUACAUCUCUGAGCUCUGGAAUGCUCACCCAGAACACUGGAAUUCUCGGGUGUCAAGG | -2.46
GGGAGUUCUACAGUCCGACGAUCUCAGAGGAAUAUCCUUGACUUCCCCCAGCAUGUUUCCCCCUCCAAGGACAUCCGGACAGCCAGCACAGAGGCCGACAAGAAGCUCUCUGAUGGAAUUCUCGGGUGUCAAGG | 1.14

Sample 5 — target: CCNB2, cyclin fold, Cln2 fusion (human); method: yeast growth competition, sequencing; medium: yeast; notes: weak parent motif; relative to: not given; direction: higher = stronger binding
Parent: NPAT docking peptide (human); PCHRRVLCFDSTT; partner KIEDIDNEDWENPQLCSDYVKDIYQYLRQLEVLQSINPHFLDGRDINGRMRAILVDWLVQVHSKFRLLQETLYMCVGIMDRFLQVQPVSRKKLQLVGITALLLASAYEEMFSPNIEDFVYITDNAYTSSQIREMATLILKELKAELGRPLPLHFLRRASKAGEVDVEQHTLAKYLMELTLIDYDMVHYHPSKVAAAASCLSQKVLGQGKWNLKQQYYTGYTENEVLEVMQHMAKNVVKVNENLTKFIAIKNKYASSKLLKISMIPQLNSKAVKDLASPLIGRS
Change | normalised enrichment score
PCHRRVLCLDSTT [F9L] | 0.359
PCHRRVACFDSTT [L7A] | 0.089
PCHRRVLCFDATT [S11A] | 0.323
PCHRAVACFDSTT [R5A L7A] | -0.207
PCARRVLCFDSTT [H3A] | 0.0954
PCHRRVLCFDSTA [T13A] | -0.0627
PAHRRVLCFDSTT [C2A] | 0.355
PCHARVLCFDSTT [R4A] | 0.214
PCHRRALCFDSTT [V6A] | 0.409
PCHRKVLCFDSTT [R5K] | 0.418

Sample 6 — method: protein binding microarray; form: double-stranded DNA, one strand shown; medium: in vitro; concentration: not given; relative to: not given; direction: higher = stronger binding
Target: Histone acetyltransferase KAT6A, winged helix 2, GST fusion (KAT6A, Homo sapiens, UniProt Q92794, residues 85-181)
Notes: 8-mer, flanks averaged, mean of 2 arrays, mostly near background
Construct (chain): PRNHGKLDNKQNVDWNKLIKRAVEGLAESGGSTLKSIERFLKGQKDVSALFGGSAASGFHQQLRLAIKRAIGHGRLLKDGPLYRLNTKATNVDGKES
Oligonucleotide | E-score
AGACAGGA | 0.178
GACTGTCA | -0.165
ACCTTGCG | 0.0186
GTGTTATA | 0.123
ATACTCGC | -0.0428
AACTGGGC | -0.0443
CTATTAAC | -0.0574
AGCGGAGG | 0.0336
TAAACTAA | 0.138
GTAGATTA | 0.104
GCCCGTAC | -0.019
AATGTTGT | -0.185
AATCAAAC | 0.0489
CCAGGAGA | 0.0291
CCACCGTA | -0.0234
AGGAGTGA | -0.0525
TGAGACAA | -0.138
AGACCAAG | 0.0339
GATAGCTA | -0.0283
GACATGGA | -0.0614
AAGCCAGT | -0.139
TCAAGTGA | -0.0315

Repeated from above (sample 5):
Change | normalised enrichment score
PCHRRALCFDSTT [V6A] | 0.409
PCARRVLCFDSTT [H3A] | 0.0954
PCHRKVLCFDSTT [R5K] | 0.418
PCHRRVLCFDSTA [T13A] | -0.0627
PAHRRVLCFDSTT [C2A] | 0.355
PCHRRVLCFDATT [S11A] | 0.323
PCHRAVACFDSTT [R5A L7A] | -0.207
PCHRRVACFDSTT [L7A] | 0.089
PCHRRVLCLDSTT [F9L] | 0.359
PCHARVLCFDSTT [R4A] | 0.214
